Results of several laboratories.
Each line is one published result; not all experiments were run side by side. Several values in a cell are separate wells, animals, samples, runs or records. Numbers after ± are the reported error.
AKT3: RAC-gamma serine/threonine-protein kinase (AKT3, Homo sapiens, UniProt Q9Y243)
Chain of UniProt Q9Y243 (whole entry, looked up): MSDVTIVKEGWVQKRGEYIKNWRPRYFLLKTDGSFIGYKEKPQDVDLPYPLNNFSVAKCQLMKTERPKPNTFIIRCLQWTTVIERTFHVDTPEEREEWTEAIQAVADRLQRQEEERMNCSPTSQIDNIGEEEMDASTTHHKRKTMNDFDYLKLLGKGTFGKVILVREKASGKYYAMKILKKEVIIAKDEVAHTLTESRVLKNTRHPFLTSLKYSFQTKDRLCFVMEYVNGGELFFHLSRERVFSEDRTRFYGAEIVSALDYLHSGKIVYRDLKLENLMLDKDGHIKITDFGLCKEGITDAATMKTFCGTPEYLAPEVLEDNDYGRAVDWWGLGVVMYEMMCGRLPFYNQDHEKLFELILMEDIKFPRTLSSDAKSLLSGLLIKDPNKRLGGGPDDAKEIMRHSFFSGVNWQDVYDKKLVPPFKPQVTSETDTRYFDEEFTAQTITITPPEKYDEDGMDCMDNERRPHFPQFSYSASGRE
Chain of UniProt Q8TDC3 (whole entry, looked up): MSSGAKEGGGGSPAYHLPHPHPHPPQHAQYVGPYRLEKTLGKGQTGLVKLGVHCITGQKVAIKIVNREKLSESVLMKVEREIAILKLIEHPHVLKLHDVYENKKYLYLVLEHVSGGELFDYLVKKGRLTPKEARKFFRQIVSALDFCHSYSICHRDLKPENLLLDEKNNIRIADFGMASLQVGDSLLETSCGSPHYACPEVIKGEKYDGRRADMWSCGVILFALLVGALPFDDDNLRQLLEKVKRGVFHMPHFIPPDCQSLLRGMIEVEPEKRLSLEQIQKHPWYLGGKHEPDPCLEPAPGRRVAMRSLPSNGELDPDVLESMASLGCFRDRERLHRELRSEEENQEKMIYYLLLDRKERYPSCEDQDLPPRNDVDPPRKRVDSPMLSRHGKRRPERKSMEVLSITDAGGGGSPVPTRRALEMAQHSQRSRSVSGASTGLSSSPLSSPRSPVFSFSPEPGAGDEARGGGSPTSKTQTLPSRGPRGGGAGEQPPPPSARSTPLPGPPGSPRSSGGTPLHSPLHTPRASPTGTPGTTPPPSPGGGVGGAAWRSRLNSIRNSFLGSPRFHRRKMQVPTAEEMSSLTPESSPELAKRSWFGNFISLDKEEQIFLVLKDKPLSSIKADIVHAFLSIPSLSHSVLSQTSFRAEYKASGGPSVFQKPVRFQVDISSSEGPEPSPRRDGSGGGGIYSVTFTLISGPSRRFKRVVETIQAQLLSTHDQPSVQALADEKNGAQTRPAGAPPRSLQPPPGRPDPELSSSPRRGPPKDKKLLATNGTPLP

CC(=O)N[C@H](C(=O)N[C@@H](CCCC(=O)OC(C)(C)C)C(=O)N[C@@H](CCC1CCCCC1)C(=O)N[C@@H](CC(=O)O)C(=O)COC(=O)c1c(C)cccc1C)C(C)(C)C — blood concentration (C57BL/6N mouse, female, whole blood; intraperitoneal, dose not given, 0.5 h): 674 µM
Cc1nc2cccc(OCC(C)(C)C(=O)NC(C)C)c2c(N)c1C(=O)[O-].[Na+] — revertant colonies per plate (Salmonella typhimurium; TA1537; 5.0 mg per plate, with S9, preincubation): 13 ± 5
C#Cc1c(F)ccc2cc(O)cc(-c3ncc4c(N5CC6CCC(C5)N6C(=O)OC(C)OC(=O)CC5CCCC5)nc(OC[C@@]56CCCN5C[C@H](F)C6)nc4c3F)c12 (stereo partly drawn) — compound remaining (chemical stability; simulated intestinal fluid; 1 µM, 30 min): 67.9%
COc1ccccc1-c1n[nH]c2nc(NC3CCN(C(=O)Cc4ccc(F)cc4F)CC3)ncc12 — relative abundance (LMJF.01.0320; bead binding competition; Leishmania donovani extract; 10 µM; baseline: vehicle): 1.01
C=Cc1c(C)c2cc3nc(c(CC(=O)[O-])c4[n-]c(cc5nc(cc1[n-]2)C(C)=C5CC)c(C)c4C(=O)[O-])C(CCC(=O)[O-])C3C.[Cu+2].[Na+].[Na+].[Na+] (stereo not drawn) — blood urea nitrogen (Wistar rat, male; oral, 250 mg/kg daily, 28 days): 23.7 ± 2.42 mg/dL
COc1cnc2cccc(N3CCc4c(cc(Cn5ccnc5)cc4-c4cn(C)nc4C(F)(F)F)C3=O)c2c1 — body weight (BALB/c nude mice, MV4-11 xenograft; intraperitoneal, 100 mg/kg, day 21): 23.2 g and 20.7 g and 24.8 g and 25.8 g and 23.7 g and 22.6 g and 22.5 g
CC[C@H](C)[C@H](NC(=O)[C@H](CO)NC(=O)[C@H](Cc1ccc(O)cc1)NC(=O)[C@H](Cc1ccc(O)cc1)NC(=O)[C@H](CC(N)=O)NC(=O)CNC(=O)[C@H](CO)NC(=O)[C@H](Cc1ccc(O)cc1)NC(=O)[C@H](CO)NC(=O)[C@H](CO)NC(=O)[C@H](CC(N)=O)NC(=O)COCCOCCNC(=O)CN1CCN(CC(=O)O)CCN(CC(=O)O)CCN(CC(=O)O)CC1)C(=O)N[C@@H](CC(C)C)C(N)=O [copper-64 labelled] — tumour uptake (dynamic PET; KPC mouse, pancreatic cancer model, blood; intravenous, 0.4 min, 49 days after tamoxifen): 44.7 %ID/mL
COc1ccccc1-c1n[nH]c2nc(N[C@H]3CC[C@H](NS(=O)(=O)CC(C)C)CC3)ncc12 — relative captured amount (CYCA LINJ.25.1530; bead competition pull-down; Leishmania extract; 10 µM; baseline: vehicle): 0.47
CS(C)(=O)=Nc1ccc(-c2ccc(-c3nc4cc(O[C@@H]5CO[C@H]6[C@@H]5OC[C@H]6O)[nH]c4cc3F)cc2)cc1 — inhibition (BRSK1 (Homo sapiens, UniProt Q8TDC3); enzyme activity, inhibitor; 10 µM): -12%
CC(C)[C@H]1NC(=O)C[C@H]2/C=C/CCSSC[C@@H](NC1=O)C(=O)N[C@H](Cc1cccc3ccccc13)C(=O)NCC(=O)O2 — inhibition (AKT3; enzyme activity, inhibitor; 10 µM): -6%
CC(C)C[C@@H](NC(=O)[C@@H](CCCNC(=N)N)NC(=O)[C@@H](Cc1c[nH]cn1)NC(=O)[C@@H](Cc1c[nH]c2ccccc12)NC(=O)[C@@H](Cc1c[nH]cn1)NC(=O)[C@@H](Cc1ccccc1)NC(=O)[C@H](NC(=O)[C@@H](Cc1ccc(O)cc1)NC(=O)CNC(=O)CNC(=O)CCOCCOCCOCCNC(=O)CN1CCN(CC(=O)O)CCN(CC(=O)O)CC1)[C@H](C)O)C(=O)N[C@H](CC(N)=O)C(=O)N1CCC[C@@H]1C(=O)O [gallium-68 labelled] — absorbed dose (human female, from C57BL/6 mouse, urinary bladder wall): 0.0119 ± 0.000982 mSv/MBq
CC[C@H](C)[C@H](NC(=O)[C@H](CCCCN)NC(=O)CNC(=O)[C@H](CC(C)C)NC(=O)[C@H](Cc1ccccc1)NC(=O)[C@H](CCCCN)NC(=O)[C@H](CO)NC(=O)[C@H](Cc1ccccc1)NC(=O)[C@H](Cc1c[nH]c2ccccc12)NC(=O)[C@H](CCC(N)=O)NC(=O)[C@@H](NC(=O)[C@H](Cc1ccccc1)NC(=O)CCCCCNC(=O)CN1CCN(CC(=O)O)CCN(CC(=O)O)CCN(CC(=O)O)CC1)C(C)C)C(=O)N[C@@H](CCC(=O)O)C(=O)N1CCC[C@H]1C(=O)N[C@@H](CC(=O)O)C(=O)N[C@H](C(=O)N[C@@H](CO)C(=O)N[C@@H](CCC(N)=O)C(=O)N[C@H](C(=O)N[C@@H](CCC(N)=O)C(=O)N[C@@H](CC(=O)O)C(=O)N1CCC[C@H]1C(=O)N[C@@H](CC(N)=O)C(=O)N[C@@H](CC(=O)O)C(=O)N[C@@H](CCC(N)=O)C(=O)N[C@@H](Cc1ccc(O)cc1)C(=O)N[C@@H](CCC(=O)O)C(=O)N1CCC[C@H]1C(=O)N[C@@H](Cc1ccccc1)C(=O)O)C(C)C)C(C)C [copper-64 labelled] — SUVmean (dynamic PET; mouse, CT26 tumour, untreated, tumour; intravenous, 100 µCi/mouse, 1980 s): 1.31 SUV
CC(C)[C@H](NC(=O)[C@@H](NC(=O)[C@H](CCCNC(=N)N)NC(=O)[C@H](CCCNC(=N)N)NC(=O)[C@H](CCCNC(=N)N)NC(=O)[C@H](CCC(N)=O)NC(=O)[C@H](CCCNC(=N)N)NC(=O)[C@H](CCCNC(=N)N)NC(=O)[C@H](CCCCN)NC(=O)[C@H](CCCCN)NC(=O)[C@H](CCCNC(=N)N)NC(=O)CN)[C@@H](C)O)C(=O)N[C@H](C(=O)N[C@@H](CO)C(=O)N1CCC[C@H]1C(=O)O)[C@@H](C)O — organ weight (ICR mice, male, brain; intranasal, 10 mg/kg daily, 4 weeks): 0.559 ± 0.043 g
C[C@H](O)[C@@H](NC(=O)[C@H]1CCCN1C(=O)[C@@H](CCCCN)NC(=O)[C@@H](CO)NC(=O)[C@@H](Cc1ccc(O)cc1)NC(=O)[C@@H](CC(N)=O)NC(=O)CCOCCOCCOCCNC(=O)CN1CCN(CC(=O)O)CCN(CC(=O)O)CCN(CC(=O)O)CC1)C(=O)N[C@H](CC(=O)O)C(=O)N[C@H](CCCNC(=N)N)C(=O)N[C@H](CCC(N)=O)C(=O)N[C@H](Cc1ccc(O)cc1)C(=O)N[C@H](Cc1c[nH]cn1)C(=O)N[C@H](Cc1ccccc1)C(N)=O [copper-64 labelled] — tissue uptake (C57BL/6J mice, muscle; intravenous, 1.85 MBq, 1 h, radiolabelled): 0.23 ± 0.16 %ID/g
Cc1ccccc1-c1ccc(-c2nc(-c3ccc(CN(C)CCCC(=O)O)c([18F])c3)no2)cc1C(F)(F)F — tracer uptake (rat, brain; 30 min): 0.37 %ID/g
O=C1NC2(CC2)COc2ncc(F)cc2[C@H]2COCCN2c2ccn3ncc1c3n2 — organ weight (Sprague-Dawley rat, male, spleen; oral, 20 mg/kg/day, 4 weeks): 1.69 ± 0.384 g
CC1COC2=C1C(=O)C(=O)c1c2ccc2c1C(OC(=O)CNC(=O)C(N)CO)CCC2(C)C (mixture of isomers) — thermodynamic solubility (PBS; pH 5.5, 25 °C): 0.676 mg/mL
CC(=O)NCCCC[C@@H]1NC(=O)[C@H](Cc2c[nH]c3c(C)cccc23)NC(=O)[C@H]([C@@H](C)O)NC(=O)[C@H](CC(N)=O)NC(=O)[C@@H](NC(C)=O)C(C)(C)SSC(C)(C)[C@@H](C(=O)N[C@@H](Cc2ccc(OCCN)cc2)C(=O)N[C@@H](Cc2ccc3ccccc3c2)C(=O)NC2(C(=O)N[C@@H](CCC(=O)O)C(=O)N[C@@H](CC(N)=O)C(=O)N[C@@H](Cc3cccnc3)C(=O)N(C)CC(N)=O)CCOCC2)NC1=O — tissue concentration (cynomolgus monkey, skin; intravenous, 1 mg/kg; baseline: plasma concentration): 68%
O=C(CN1CCN(CC(=O)NCP(=O)([O-])[O-])CCN(CC(=O)NCP(=O)([O-])[O-])CCN(CC(=O)NCP(=O)([O-])[O-])CC1)NCP(=O)([O-])[O-].[Gd+3] — elimination half-life beta (Sprague-Dawley rats, blood; intravenous, 35 µmol/kg, two-compartment model, together with: GdDTPA 68 µmol/kg co-injected): 41.7 min
CN(C)[C@H]1C[C@@]23CC[C@@]4(O2)C(=CC[C@]2(C)[C@@H](c5ccc6ccncc6c5)CC[C@H]24)C=C3[C@@H](O)[C@@H]1O — inhibition (MAP3K20 (Homo sapiens, UniProt Q9NYL2); ATP probe labelling, inhibitor, KiNativ profiling; 0.1 µM): -4.6%
CC(C)[C@@H]1NC(=O)CNC(=O)[C@H](CC(N)=O)NC(=O)[C@H](CCCNC(=N)N)NC(=O)[C@H](Cc2ccc(O)cc2)NC(=O)[C@H](C(C)C)NC(=O)[C@@H](NC(=O)[C@@H](NC(=O)[C@H](CC(N)=O)NC(=O)[C@H](Cc2c[nH]c3ccccc23)NC(=O)[C@H](C)NC(=O)[C@H](Cc2ccccc2)NC(=O)CNC(=O)[C@H](CCCCN)NC(=O)[C@H](Cc2ccccc2)NC(=O)[C@H](Cc2ccccc2)NC(=O)[C@H](CCCCN)NC(=O)OCC2c3ccccc3-c3ccccc32)C(C)C)CSSC[C@@H](C(=O)N[C@@H](Cc2c[nH]cn2)C(=O)N[C@@H](CCCNC(=N)N)C(=O)N[C@@H](CCCNC(=N)N)C(=O)N[C@@H](C)C(=O)N[C@@H](CC(N)=O)C(N)=O)NC(=O)[C@H](C(C)C)NC(=O)[C@H](CCCNC(=N)N)NC1=O — blood urea nitrogen (ICR mouse, serum; ip, 5 mg/kg, 3 d dosing, blood day 5): 10.8 ± 0.96 mmol/L
CC(C)N1CCCCC1C(=O)NC(Cc1ccc(-c2ccccc2)cc1)B(O)O (stereo not drawn) — blood concentration (SCID mouse, P. falciparum model, blood; oral, 25 mg/kg, 4 h): 18 ng/mL
CSCC[C@@H]1NC(=O)[C@H](C(C)C)NC(=O)[C@H](CCCNC(=N)N)NC(=O)[C@@H]2CCCN2C(=O)CNC(=O)[C@@H](NC(=O)CNC(=O)[C@H](CO)NC(=O)CNC(=O)[C@H](CO)NC(=S)Nc2ccc(C[C@H]3CN(CC(=O)O)CCN(CC(=O)O)CCN3CC(=O)O)cc2)CSSC[C@@H](C(N)=O)NC(=O)[C@@H]2CCCN2C(=O)CNC(=O)[C@H](CCC(=O)O)NC(=O)[C@H](CC(=O)O)NC(=O)[C@H](CC(=O)O)NC(=O)CNC(=O)[C@H](CC(C)C)NC(=O)[C@H](Cc2c[nH]cn2)NC(=O)[C@H](CC(C)C)NC(=O)CNC(=O)[C@H](Cc2c[nH]cn2)NC1=O [copper-64 labelled] — half-life (dynamic PET; CD rat, myocardial infarction model, fibrotic infarct myocardium; intravenous, 18.5 MBq, 5 to 60 min): 21.5 ± 1.4 min
COc1ccc([C@@H]2CC(=O)c3c(O)cc(O[C@@H]4O[C@H](CO)[C@@H](O)[C@H](O)[C@H]4O[C@@H]4O[C@@H](C)[C@H](O)[C@@H](O)[C@H]4O)cc3O2)cc1O — faecal excretion (Sprague-Dawley rat, male, obese, faeces; oral, 100 mg/kg, 0-12 h): 395 ± 166 ng
O=C1NC(=O)c2c1c1cc(F)c[n+]3c1c1c2c2cc(O)ccc2[n]1[Ru-4]312([N]=C=S)[S+]3CC[S+]1CC[S+]2CC3 (stereo not drawn) — remaining activity (AKT3; enzyme activity; 100 nM, human enzyme, together with: 10 µM ATP; baseline: untreated): 6%
CC(C)(C)C(=O)OCOP(=O)(OCOC(=O)C(C)(C)C)C1CCCN(O)C1=O (stereo not drawn) — log TGI (SK-MEL-5): -5.8 log M
CSc1nc2[nH]nc([N+](=O)[O-])c(=O)n2n1 — fraction unbound (plasma): 0.05

Excerpt of the above:
CC(C)(C)C(=O)OCOP(=O)(OCOC(=O)C(C)(C)C)C1CCCN(O)C1=O (stereo not drawn) — log TGI (SK-MEL-5): -5.8 log M
CSc1nc2[nH]nc([N+](=O)[O-])c(=O)n2n1 — fraction unbound (plasma): 0.05
